Assay results gathered from unrelated publications.
Numbers after ± are the reported error.
Chain of UniProt P05177 (whole entry, looked up): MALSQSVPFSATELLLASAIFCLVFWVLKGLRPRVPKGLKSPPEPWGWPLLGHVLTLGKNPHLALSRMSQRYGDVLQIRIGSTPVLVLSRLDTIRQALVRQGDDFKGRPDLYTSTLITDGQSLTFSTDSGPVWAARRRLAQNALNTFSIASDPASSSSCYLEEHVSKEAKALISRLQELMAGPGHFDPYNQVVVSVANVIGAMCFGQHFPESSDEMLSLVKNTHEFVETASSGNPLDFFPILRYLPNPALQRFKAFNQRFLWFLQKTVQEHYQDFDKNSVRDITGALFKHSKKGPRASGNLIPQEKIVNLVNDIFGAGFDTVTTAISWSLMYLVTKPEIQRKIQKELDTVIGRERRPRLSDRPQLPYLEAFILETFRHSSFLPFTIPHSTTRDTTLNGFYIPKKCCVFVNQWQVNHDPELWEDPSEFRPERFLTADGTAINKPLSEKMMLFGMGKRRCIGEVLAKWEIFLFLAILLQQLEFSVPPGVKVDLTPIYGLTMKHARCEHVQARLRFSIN
Chain of UniProt O95180 (whole entry, looked up): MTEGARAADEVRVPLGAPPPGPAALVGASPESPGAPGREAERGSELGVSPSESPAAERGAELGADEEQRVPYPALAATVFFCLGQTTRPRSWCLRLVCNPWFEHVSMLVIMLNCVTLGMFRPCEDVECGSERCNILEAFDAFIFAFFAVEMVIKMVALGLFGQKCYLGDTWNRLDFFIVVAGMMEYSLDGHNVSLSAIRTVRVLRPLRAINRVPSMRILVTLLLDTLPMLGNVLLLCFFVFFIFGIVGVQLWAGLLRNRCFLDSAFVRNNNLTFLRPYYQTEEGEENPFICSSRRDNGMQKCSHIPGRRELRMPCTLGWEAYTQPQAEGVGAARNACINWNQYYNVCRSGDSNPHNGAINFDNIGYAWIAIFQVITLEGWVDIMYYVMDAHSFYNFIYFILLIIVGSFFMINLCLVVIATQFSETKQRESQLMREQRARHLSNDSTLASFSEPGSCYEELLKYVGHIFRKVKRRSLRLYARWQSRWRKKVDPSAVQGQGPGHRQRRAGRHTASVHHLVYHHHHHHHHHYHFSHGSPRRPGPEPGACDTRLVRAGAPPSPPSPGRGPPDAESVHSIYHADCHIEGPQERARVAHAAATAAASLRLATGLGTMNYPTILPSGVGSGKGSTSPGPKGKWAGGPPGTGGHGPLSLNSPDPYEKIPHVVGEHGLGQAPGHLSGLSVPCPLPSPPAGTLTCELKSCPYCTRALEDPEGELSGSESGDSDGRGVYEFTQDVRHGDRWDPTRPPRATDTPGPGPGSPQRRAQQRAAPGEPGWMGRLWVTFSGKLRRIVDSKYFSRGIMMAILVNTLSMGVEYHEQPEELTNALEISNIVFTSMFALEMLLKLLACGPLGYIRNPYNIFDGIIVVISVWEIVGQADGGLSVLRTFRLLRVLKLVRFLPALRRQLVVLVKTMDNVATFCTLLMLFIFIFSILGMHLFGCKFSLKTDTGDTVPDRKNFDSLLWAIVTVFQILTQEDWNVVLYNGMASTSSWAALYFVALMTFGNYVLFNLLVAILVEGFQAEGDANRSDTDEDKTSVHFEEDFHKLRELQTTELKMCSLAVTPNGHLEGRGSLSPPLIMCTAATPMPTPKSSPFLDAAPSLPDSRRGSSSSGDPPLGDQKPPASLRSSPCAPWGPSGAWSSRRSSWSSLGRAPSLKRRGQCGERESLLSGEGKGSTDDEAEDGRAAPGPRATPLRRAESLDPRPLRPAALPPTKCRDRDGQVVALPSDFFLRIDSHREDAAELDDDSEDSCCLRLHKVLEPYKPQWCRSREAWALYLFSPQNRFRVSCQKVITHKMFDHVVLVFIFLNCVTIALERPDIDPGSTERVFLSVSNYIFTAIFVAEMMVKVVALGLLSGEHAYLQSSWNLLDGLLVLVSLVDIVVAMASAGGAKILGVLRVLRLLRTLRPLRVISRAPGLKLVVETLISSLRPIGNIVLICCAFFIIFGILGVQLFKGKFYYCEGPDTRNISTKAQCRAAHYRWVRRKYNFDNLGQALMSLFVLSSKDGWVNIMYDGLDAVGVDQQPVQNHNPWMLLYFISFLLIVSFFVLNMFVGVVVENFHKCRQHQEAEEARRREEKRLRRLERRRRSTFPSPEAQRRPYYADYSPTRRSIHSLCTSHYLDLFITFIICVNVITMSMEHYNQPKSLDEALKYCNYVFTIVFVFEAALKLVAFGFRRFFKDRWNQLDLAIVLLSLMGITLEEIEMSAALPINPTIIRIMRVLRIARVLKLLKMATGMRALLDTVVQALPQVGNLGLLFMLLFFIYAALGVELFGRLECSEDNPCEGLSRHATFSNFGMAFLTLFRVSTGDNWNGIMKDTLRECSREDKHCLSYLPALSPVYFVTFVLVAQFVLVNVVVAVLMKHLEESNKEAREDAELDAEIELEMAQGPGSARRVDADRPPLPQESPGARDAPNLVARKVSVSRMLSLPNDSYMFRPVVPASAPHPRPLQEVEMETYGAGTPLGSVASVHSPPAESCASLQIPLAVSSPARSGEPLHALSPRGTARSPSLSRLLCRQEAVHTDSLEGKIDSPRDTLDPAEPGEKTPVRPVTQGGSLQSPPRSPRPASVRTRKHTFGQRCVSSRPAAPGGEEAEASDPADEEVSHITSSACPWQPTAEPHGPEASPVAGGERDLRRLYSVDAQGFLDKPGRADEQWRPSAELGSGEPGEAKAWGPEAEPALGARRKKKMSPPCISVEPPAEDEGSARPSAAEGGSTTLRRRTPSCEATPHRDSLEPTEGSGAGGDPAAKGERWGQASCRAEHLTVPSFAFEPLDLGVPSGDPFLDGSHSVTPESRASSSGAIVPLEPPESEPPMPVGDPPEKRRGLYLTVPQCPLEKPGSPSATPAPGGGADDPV

SMILES	target or system	test	system	setting	how to read	measurement	value
C[C@H](NC(=O)COC(=O)[C@H](C)NC(=O)CO)C(=O)O	–	–	water	pH 7, 25 °C	–	depolymerization half-life	0.63 h
CC[C@H](C)[C@H](NC(=O)[C@H](N)Cc1ccc(O)cc1)C(=O)N[C@H]1CSSC[C@@H](C(=O)N(C)[C@H](C(N)=O)[C@@H](C)CC)NC(=O)[C@H](CCCNC(=N)N)NC(=O)[C@H](Cc2c[nH]cn2)NC(=O)[C@H](C)NC(=O)CN(C)C(=O)[C@H](Cc2c[nH]c3ccccc23)NC(=O)[C@H](CC(=O)O)NC(=O)[C@H](CCC(N)=O)NC(=O)[C@H](Cc2cn(C)c3ccccc23)NC(=O)[C@H](C(C)C)NC1=O	–	UPLC-ESI-MS	cynomolgus monkey plasma	3.58 µg/mL, 48 h, 25 °C, bench-top after SPE	–	recovery	102 ± 4%
C=Cn1c2ccc([N+](=O)[O-])cc2c(=O)n1Cc1ccccc1	–	resazurin	peritoneal macrophages, BALB/c mice	48 h, 10% FBS	–	CC50	5.1 ± 0.2 µM
CN1C(=O)[C@@H](Cc2ccc(O)cc2)NC(=O)CNC(=O)[C@H](Cc2ccc3ccccc3c2)NC(=O)[C@H](CCCNC(=N)N)NC(=O)[C@H]1CCCNC(=O)c1ccc(CNC(=O)CN2CCN(CC(=O)O)CCN(CC(=O)O)CCN(CC(=O)O)CC2)cc1 [gallium-68 labelled]	–	–	SCID mice, lymphoma xenograft, lungs	intravenous, 1 h	–	tissue uptake	4.4 ± 0.6 %ID/g
CC(=O)N[C@H](CSSC[C@H](N)C(=O)O)C(=O)N[C@H](C)C(=O)N[C@H](CCCNC(=N)N)C(=O)N[C@H](CCCNC(=N)N)C(=O)N[C@H](CCCNC(=N)N)C(=O)N[C@H](C)C(=O)N[C@H](CCCNC(=N)N)C(N)=O	–	–	male human, plasma	intravenous, 0.5 mg, single dose, healthy volunteers	–	clearance	89 mL/min
C=CC(=O)Nc1cc(Nc2nccc(-c3cn(C)c4ccccc34)n2)c(OCC(F)(F)F)nc1N(C)CCN(C)C	Cytochrome P450 1A2 (CYP1A2, Homo sapiens, UniProt P05177)	enzyme activity, inhibitor, item: phenacetin O-deethylation	human liver microsomes	100 µM	–	remaining activity	67.2%
O=C(CCc1ccc(CNC(C(=O)OC2CCCC2)C2CCCCC2)cn1)NO (centres unmarked)	–	–	human, plasma	oral, 20 mg once daily, median	reference: day 7 over day 1	accumulation ratio Cmax	0.9
CCN(CC)CCSC(=S)N1CCN(C(=O)/C=C/c2coc3cc(OC)ccc3c2=O)CC1	tomato spotted wilt virus	viral infection, half-leaf method	Nicotiana glutinosa	500 µg/mL	–	inactivation effect	57.2 ± 4.6%
Cc1cc([C@H](C(=O)N2C[C@H](O)C[C@H]2C(=O)N[C@@H](CC(=O)N2CCC(N3CCC(C#Cc4ccc(C(=O)N[C@H]5C(C)(C)[C@H](Oc6ccc(C#N)c(Cl)c6)C5(C)C)cc4)CC3)CC2)c2ccc(-c3scnc3C)cc2)C(C)C)on1	MDA-MB-453	suppression of increase, item: WNT7B	–	24 h	–	effective concentration	10 nM
Cn1c(=O)oc2ccc(-c3ccc(CC(C#N)NC(=O)C4CNCCCO4)c(F)c3)cc21 (centres unmarked)	–	–	human	oral, 20 mg once daily, treatment-related AE, multiple ascending dose	–	lymphadenopathy incidence	11.1%
COC(=O)c1ccc(-c2cn(Cc3cc(Cl)ccc3O[11CH3])nn2)cc1	–	PET, two-tissue compartment model	rhesus monkey, brain Amygdala	dose not given	–	distribution volume	0.565 mL/cm³
CC(=O)N[C@@H](CC(N)=O)C(=O)NCC(=O)N[C@@H](CCCNC(=N)N)C(=O)N[C@@H](C)C(N)=O	–	1H NMR	sodium phosphate buffer 50 mM	pH 7.4, 37 °C	–	half-life of Asn form	21.8 h
CN[C@@H]1[C@H](O)[C@H](NC)[C@H]2O[C@]3(O)[C@H](O[C@@H]2[C@H]1O)O[C@H](C)C[C@@]3(O)CNCc1ccc(F)cc1	–	–	rat	intravenous, 10 mg/kg	–	volume of distribution	0.64 L/kg
CCCC[C@H](NC(=O)CNC(=O)CNC(=O)CN1CCN(CC(=O)O)CCN(CC(=O)O)CC1)C(=O)N[C@H]1CC(=O)NCCCC[C@@H](C(N)=O)NC(=O)[C@H](Cc2c[nH]c3ccccc23)NC(=O)[C@H](CCCNC(=N)N)NC(=O)[C@@H](Cc2ccccc2)NC(=O)[C@H](Cc2c[nH]cn2)NC1=O [copper-64 labelled]	–	–	female C57 mouse, B16/F1 melanoma	intravenous, 0.037 MBq, 0.5 h	reference: tumour over liver	uptake ratio	11.4
N#Cc1cnc2cc(OCC3CCNCC3)c(F)cc2c1Nc1cc(F)c(OCc2cccc(Cl)n2)cc1Cl	–	–	female CD-1 mouse, plasma	intravenous, 5 mg/kg	–	MRT	4 h
CCCC[C@H](NC(=O)CNC(=O)CNC(=O)CN1CCN(CC(=O)O)CCN(CC(=O)O)CCN(CC(=O)O)CC1)C(=O)N[C@H]1CC(=O)NCCCC[C@@H](C(N)=O)NC(=O)[C@H](Cc2c[nH]c3ccccc23)NC(=O)[C@H](CCCNC(=N)N)NC(=O)[C@@H](Cc2ccccc2)NC(=O)[C@H](Cc2c[nH]cn2)NC1=O [lutetium-177 labelled]	–	–	C57 mouse, female, intestines	intravenous, 0.037 MBq, 2 h	–	tissue uptake	0.9 ± 0.18 %ID
CCCC(CCC)NC(=O)c1ccc(OC2OC(C(=O)O)C(O)C(O)C2O)c(O)c1 (centres unmarked)	–	–	male Sprague-Dawley rat, plasma	oral, 20 mg/kg of parent drug	–	Tmax	7 h
COc1ccc(C2CC(c3ccc(C)cc3)=Nc3ccccc3S2)cc1OC (centres unmarked)	–	–	Wistar rat, STZ-induced diabetes	oral, 10 mg/kg once daily, day 28	–	body weight	177 ± 4.98 g
CCN(CC)CCCSC(=S)N1CCN(C(=O)/C=C/c2coc3ccc(F)cc3c2=O)CC1	tomato spotted wilt virus	viral infection, half-leaf method	Nicotiana glutinosa	500 µg/mL	–	protective effect	61.5 ± 4.2%

SMILES	target or system	test	system	setting	how to read	measurement	value
CC(C)c1cnc(-c2cc(Cl)ccc2F)cc1Nc1ccncc1C(=O)NC(CO)CO	–	item: hepatic haemorrhage	human patients	oral, dose not given, grade 4	–	patients with related SAE	0%
O=C(CCCCC[N+]#[C][99Tc-5]([C]#[N+]CCCCCC(=O)N[C@H]1C(O)O[C@H](CO)[C@@H](O)[C@@H]1O)([C]#[N+]CCCCCC(=O)N[C@H]1C(O)O[C@H](CO)[C@@H](O)[C@@H]1O)([C]#[N+]CCCCCC(=O)N[C@H]1C(O)O[C@H](CO)[C@@H](O)[C@@H]1O)([C]#[N+]CCCCCC(=O)N[C@H]1C(O)O[C@H](CO)[C@@H](O)[C@@H]1O)[C]#[N+]CCCCCC(=O)N[C@H]1C(O)O[C@H](CO)[C@@H](O)[C@@H]1O)N[C@H]1C(O)O[C@H](CO)[C@@H](O)[C@@H]1O (some centres unmarked)	–	–	nude mouse with U87 MG xenograft	–	–	tumour/brain ratio	19 ± 0.71
CC(C)(C)CCN1C[C@@H]2[C@@H](CNC(=O)c3cc(Cl)cc(Cl)c3)[C@@H]2C1.Cl	Voltage-dependent T-type calcium channel subunit alpha-1H (CACNA1H, Homo sapiens, UniProt O95180)	whole-cell patch clamp	HEK-293T, transfected	100 nM	–	activation slope factor	6.81 ± 0.15 mV
[64Cu+2].c1ccc(CNCc2ccc(CN3CCCN4CCNCCCN(CC4)CC3)cc2)nc1	CXCR4	–	NOD/SCID mouse, U87 and U87-stb-CXCR4 xenografts, heart	iv, 90 min, no blocking dose, ex vivo	–	tissue uptake	1.49 ± 0.16 %ID/g
CC(C)[C@H](NC(=O)CNC(=O)[C@H](CCC(N)=O)NC(=O)[C@H](C)N)C(=O)O	–	–	human, plasma	intravenous bolus, 1 mg/kg single, 2 min infusion, geometric mean	–	AUC(0-last)	2 ng·h/mL
COc1cc(C)c(Cc2ccc(O)cc2)cc1[C@@H]1S[C@H](CO)[C@@H](O)[C@H](O)[C@H]1O	–	–	Japanese T2DM patients, plasma	2.5 mg luseogliflozin, day 7, once daily	–	Cmax	6.64 ± 0.776 ng/mL
CCC(=O)N(C)c1ccc(Cl)c(Cl)c1	CHO-WBL	–	–	0.13 mg/mL, 3 h, without S9 activation	–	cells with multiple aberrations	0%
CC(=O)N[C@H](CCNC(=O)c1cc(NC(=O)c2cc(NC(=O)c3cc(NC(=O)c4nccn4C)cn3C)cn2C)cn1C)C(=O)Nc1cn(C)c(C(=O)Nc2cc(C(=O)Nc3cc(C(=O)Nc4cc(C(=O)NCCCN(C)CCCN[14C](=O)c5cccc([14C](=O)O)c5)n(C)c4)n(C)c3)n(C)c2)n1	–	–	NSG male mice, LNCaP xenograft, liver	intraperitoneal, 20 nmol per animal, 24 h	–	tissue concentration	1.04 mg/kg
N=C(N)NCCC[C@@H]1NC(=O)[C@H](Cc2c[nH]c3ccccc23)NC(=O)[C@@H](CC2CCCCC2)NC(=O)[C@@H]2CCCN2C(=O)[C@@H](NC(=O)CCc2ccccc2)CCCNC1=O	–	–	C57BL/6J mouse, spinal cord	subcutaneous, 1 mg/kg, single dose, two-compartment model	–	beta elimination rate constant	0.32 h⁻¹
COC(=O)C(c1ccccc1Cl)N1CCC(SCC(=O)c2cccc(OC)c2)C(=CC(=O)O)C1 (mixture of isomers)	–	HPLC-MS/MS	feline citrate plasma	100 ng/mL, 6 h, -80 °C, storage stability	–	deviation from nominal	6%
CC[C@H](C)[C@H](NC(=O)[C@H](Cc1ccccc1)NC(=O)[C@H](CC(=O)O)NC(=O)[C@@H]1CCCCNC(=O)NCCCC[C@H](NC(=O)[C@H](CC(C)C)NC(=O)[C@H](CCCNC(=N)N)NC(=O)[C@H](CCSC)NC(=O)[C@H](C)N)C(=O)N[C@@H](CCCCN)C(=O)N[C@@H](Cc2ccccc2)C(=O)N[C@@H](Cc2ccccc2)C(=O)N1)C(=O)N[C@@H](CC(C)C)C(=O)N[C@@H](CCC(N)=O)C(=O)N[C@@H](CCCNC(=N)N)C(=O)N[C@@H](CCCCN)C(=O)N[C@@H](CCCCN)C(=O)O	–	circular dichroism	20% TFE in PBS	200 µM, pH 7.4, 25 °C	–	helicity	13.6%
[64Cu+2].c1cnc(CNCc2ccc(CN3CCCN4CCNCCCN(CC4)CC3)cc2)nc1	CXCR4	–	NOD/SCID mouse, U87 and U87-stb-CXCR4 xenografts, muscle	iv, 90 min, no blocking dose, ex vivo	–	tissue uptake	0.17 ± 0.02 %ID/g
COc1ccc(/C=C/c2ccc(-c3ccc(C)cn3)nc2)cc1	–	–	acetonitrile	zinc(II) complex	–	fluorescence lifetime	3.14 ns
CC(C)(Sc1ccncc1-c1ccc(C#N)c2ccccc12)C(=O)OC1OC(C(=O)O)C(O)C(O)C1O (centres unmarked)	–	–	plasma	oral, 15 mg, severe renal impairment	reference: impaired over normal renal function	AUC(0-inf) ratio	416%
CN1CCC[C@]1(C)/C=C/S(=O)(=O)NC(=O)Nc1c2c(cc3c1CCC3)CCC2	–	–	human, urine	oral, 25 mg single dose	–	amount recovered in urine	21.2 mg
CC[N+]1(Cc2ccc3ccc(O)c(C#N)c3n2)CCCC1CNC(=O)c1cc(S(N)(=O)=O)ccc1OC (centres unmarked)	–	–	KMOPS buffer	0.1 mM, pH 7.2	–	λmax	372 nm
O=C(O[C@@H]1Cc2c(O)cc(O)cc2O[C@@H]1c1cc(O)c(O)c(O)c1)c1cc(O)c(O)c(O)c1	–	sulfation, substrate	human small intestinal cytosol	10 min, pH 7.4	–	Km	0.82 ± 0.17 µM
Cc1ccccc1/N=N/c1ccc(/N=N/c2c(O)ccc3ccccc23)c(C)c1	–	–	extracted rat blood QC samples	0.5 µg/L, 2 h, room temperature, short-term stability	–	measured concentration	0.497 µg/L
C[C@H]1Nc2nc(=O)c3[nH]ccc3n2Cc2ccc(Cl)cc21	–	–	dog, both sexes, plasma	100 mg/kg	reference: dog over human 5 mg	exposure ratio	not detected
